Measured values from different studies.
Every numbered part comes from another study and shows a few of its results, in no order. Changes are numbered by the printed parent chain.

Block 1 — technique: RNA Bind-n-Seq; molecule type: RNA; medium: in vitro; concentration: 365 nM; baseline: no-protein control; direction: higher = stronger binding
Target: RNA binding protein fox-1 homolog 2, RRM domain, GST-SBP tag (RBFOX2, Homo sapiens, UniProt O43251-10, residues 100-194)
Notes: natural RNA segment, single round, ends assumed
Shared flanks, not repeated: GGGAGUUCUACAGUCCGACGAUC … UGGAAUUCUCGGGUGCCAA
Residues (chain): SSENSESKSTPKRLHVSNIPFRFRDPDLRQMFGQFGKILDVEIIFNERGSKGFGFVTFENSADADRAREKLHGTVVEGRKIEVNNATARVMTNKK
Strand	RBNS enrichment (R)
GCAUCCUCUUGGACCAGGGCUAGAAUGGGGAUUUCAGGUUUCUAUGAGCCUCCCCAUUACCCCUAAAGUAGAACAUUUUUUAAAUUGUGUUGCCACCACUUCUAAAAAUU	20.6
UUUUGCAUUGACUUGCUUGUUUCCCCUUUGAAACACCUAAAAAUACCUUUCCAAAACAUCGCGAGAGCAUACAUAGACAAAAAUGAAAUAGAAAGCUCUUGCAUGCUUGA	1.67
GGCUUAAGAGUCACAUCUUAGCACUUCCGCUCUCAGGCCUCCUCCUCCAUCACAGAUGUCUGGAUGCUUUUGGAAAUGGCCUUGGCUAAAGUAAAAGGGAAAAGUAGAUC	0.278
CCAUCAGCAGCUUGACGCGUGGUCACAGGACGAUUUCACUGACACUGCGAACUCUCAGGACUACCGUUACCAAGAGGUUAGGUGAAGUGGUUUAAACCAAACGGAACUCU	0.449
GAAUGGAACUAAUAUAUGUAACAGAGAAAAACAAUAAAUUUUAUGAACUUGUUUUAUAUUUGCAUAUCAAGAGUCAAGUAUGAUGUUUCUUUAAGUUGACUUUUUUUACU	0.717
UAGCUAUGGGUUUGGAACACUGGACUUGACUAUGGGGUGCUGGGAGUCAAGUCUCAGCUUUACCACUAACUAGCUGUGUGGCCUUGAGCAAAUACUAUUACUUCUCUGAG	0.277
GACAUUUUGCUAGGAAGUGACCGAGUCUAGGAAUGCUUUUAUUCAAGACACCAAAUUCCAAACUUCUAAAUGUUGGAAUUUUCAAAAAUUGUGUUUAGAUUUUAUGAAAA	0.424
GUAUUUAUAGUAACGUAAGCUAUUAAUGCUAACUCUUGCAUGUCAAGAAACAUUAGUCUUAGGAAUUCUUCAAAAAAUGGCAUCCCAAUGAAAAUAAAUUUGAUGACUAU	0.382
UGAAGCUACAGCAUAUCUAACCAGAGAAUUUCUGAUUCCUUAUACUGUGAUUAUAUUAUAUUGAGGCAUUUGUAGUGCAGCUGAAGACUGAAUUUAUGCCUUUUGUAAAC	0.36
CUGCCCAGGUGGGGUGGGGUGGCCCAGGCAGCAGAAGGUUCCCUGAGGUCCCAGAGCCUGUUCCGUUGGCCCUGGGCCGAGGCCCACAGGUGCUGCCCUUGCUGCUGCUG	0.269
AGAUGUUUAUAUCUUUGGAAGUUUUACAUAAAUCAAAGGAAGAAAGCACAUUUAAAAUGAGAAACUAAGACCAAUUUCUGUUUUUAAGAGGAAAAAGAAUGAUUGAUGUA	1.06
UCCAUGUAGUUCCGACUGCAGCAGUGUCUUAACUGAGUAGUCCAUUAAAGUACAAGUUGAUCAUUGCCCCAAGGCUCCUUUCCUUUCUGCUUGUAUUCCCUGGAUACUCU	0.338

Block 2 — target: CCND1, cyclin fold, Cln2 fusion (human); technique: yeast growth competition, sequencing; medium: yeast; notes: weak parent motif; baseline: not given; direction: higher = stronger binding
Starting sequence: MICAL3 docking peptide (human); LQLRRQLSFSEDS; partner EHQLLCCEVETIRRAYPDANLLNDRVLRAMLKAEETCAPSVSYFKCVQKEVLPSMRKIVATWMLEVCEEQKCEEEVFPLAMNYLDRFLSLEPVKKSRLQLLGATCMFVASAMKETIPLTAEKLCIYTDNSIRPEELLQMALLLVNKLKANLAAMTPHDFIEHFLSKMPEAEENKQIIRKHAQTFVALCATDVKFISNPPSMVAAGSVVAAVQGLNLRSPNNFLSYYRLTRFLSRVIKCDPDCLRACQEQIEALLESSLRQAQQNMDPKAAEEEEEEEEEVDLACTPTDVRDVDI
Change	normalised enrichment score
LQNRRQLSFSEDS [L3N]	-0.0641
LQLRRQLSFCEDS [S10C]	0.461
LQLRRQLSFSECS [D12C]	0.907
LQLRRQLSFWEDS [S10W]	-0.197
LQLRRQYSFSEDS [L7Y]	0.0398
LQQRRQLSFSEDS [L3Q]	-0.000232
LQLRRQLSWSEDS [F9W]	0.119
LQLRRQLTFSEDS [S8T]	0.213
LYLRRQLSFSEDS [Q2Y]	0.519
LQLRLQLSFSEDS [R5L]	-0.119
LQLREQLSFSEDS [R5E]	0.128
LQLRRQLSLSEDS [F9L]	-0.23
LQSRRQLSFSEDS [L3S]	1.12
LQLRRQLSFSQDS [E11Q]	0.384
LQLRRGLSFSEDS [Q6G]	0.136
LQLRRQNSFSEDS [L7N]	-0.0301
LQLRRQLSFSLDS [E11L]	0.306
LQLRRQLSFSSDS [E11S]	0.328
LCLRRQLSFSEDS [Q2C]	0.65
LQLRRQLSFSEAS [D12A]	0.562
LQLRRQLSFSHDS [E11H]	0.0118
LQPRRQLSFSEDS [L3P]	1.14
LWLRRQLSFSEDS [Q2W]	0.0492
LQLRRQLSFSYDS [E11Y]	-0.0332
LELRRQLSFSEDS [Q2E]	0.7

Block 3 — technique: universal PBM; molecule type: double-stranded DNA, one strand shown; medium: in vitro; concentration: not given; direction: higher = stronger binding
Target: Sal-like protein 4, full length isoform B (SALL4, Homo sapiens, UniProt Q9UJQ4-2, residues 1-616)
Notes: 8-mer, flanks averaged, mean of replicates
Residues (chain): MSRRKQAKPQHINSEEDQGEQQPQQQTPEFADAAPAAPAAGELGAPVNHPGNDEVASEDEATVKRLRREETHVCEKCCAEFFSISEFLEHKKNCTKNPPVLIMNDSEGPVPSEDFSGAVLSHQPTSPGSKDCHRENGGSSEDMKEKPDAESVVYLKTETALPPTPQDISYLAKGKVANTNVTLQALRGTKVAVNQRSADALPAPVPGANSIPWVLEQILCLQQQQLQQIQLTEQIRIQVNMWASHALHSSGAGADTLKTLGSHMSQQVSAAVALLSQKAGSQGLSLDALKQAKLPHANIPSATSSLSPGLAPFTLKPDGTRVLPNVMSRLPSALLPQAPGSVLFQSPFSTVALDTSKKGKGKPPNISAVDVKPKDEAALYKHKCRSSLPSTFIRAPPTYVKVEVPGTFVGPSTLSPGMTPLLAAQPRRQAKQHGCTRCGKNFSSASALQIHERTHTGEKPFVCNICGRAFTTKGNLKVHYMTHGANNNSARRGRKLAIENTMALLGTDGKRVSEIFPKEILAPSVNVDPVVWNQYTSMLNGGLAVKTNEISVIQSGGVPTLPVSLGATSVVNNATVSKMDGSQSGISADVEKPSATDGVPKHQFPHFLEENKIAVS
Strand	E-score
AAGGAGGC	-0.293
GACCCACA	0.0137
CTCATGGA	-0.0464
AACCATTC	0.176
GAAGAGTA	0.0895
GCCACTTA	0.0402
GGGTTTGA	-0.0474
CAATAGGA	0.145
AACCGACG	-0.137
CGTGCCCC	-0.281
GAGCCCGA	-0.213
GATCACAC	-0.12
CGTAATCA	0.234
CGCAATCC	-0.0248
CATCGAAC	-0.00536
ACGAGTAG	0.0168
GTCGCATA	0.167
ATGAACTA	0.276

Block 4 — technique: RNA Bind-n-Seq; molecule type: RNA; medium: in vitro; concentration: not given; baseline: input RNA pool; direction: higher = stronger binding
Target: RING finger protein unkempt homolog, zinc fingers 1-6, GST-SBP tag (UNK, Homo sapiens, UniProt Q9C0B0, residues 30-357)
Notes: RNA with constant flanks, human and mouse sites, ends assumed
Shared flanks, not repeated: GGGAGUUCUACAGUCCGACGAUC … CAACAGAGGAUUGAGCAUCA
Residues (chain): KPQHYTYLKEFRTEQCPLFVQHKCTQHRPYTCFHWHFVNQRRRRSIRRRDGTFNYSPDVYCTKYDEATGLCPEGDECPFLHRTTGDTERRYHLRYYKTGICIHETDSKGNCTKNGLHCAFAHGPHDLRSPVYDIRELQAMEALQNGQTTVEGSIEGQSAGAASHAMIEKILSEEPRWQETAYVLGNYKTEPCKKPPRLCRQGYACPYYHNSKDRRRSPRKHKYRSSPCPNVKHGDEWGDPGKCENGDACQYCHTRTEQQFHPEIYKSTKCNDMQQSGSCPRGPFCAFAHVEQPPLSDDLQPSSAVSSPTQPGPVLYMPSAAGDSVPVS
Strand	bound/input enrichment [ratio]
CCUGGGACUUUGGUUCAGUGCUUGAGGCUGCCAAAGUUUGCAGAGGAGGAGAAUCUUUGUAUAGACUCAAUAACUCCUUGUGCUGACGGAAUUCAUUUGUUGGUAGGACUGCGGACAUGC	0.0688
CCAGCAGAGAAGAAAUGUGGAGCGGAAACCCAGCACGAGGGGCUAGAACUCAGGGUAGAGAAUUUGCAGGCGGUGCAGACAGACUUUAGCUCCGAUCCACUGCAGAAAGUUGUGUGCUUC	0.424
AUGGCUUACCAUCAUGACAGCAGACGGAUAUUUGUGGGCCAGGAUAAUGGAGCUGUAAUGGAAUUUCACGUUUCUGAAGAUUUUAAUAAAAUGAACUUUAUCAAGACCUACCCAGCUCAU	0.117
UCCCCUUCUUUCUCUGCUGAUUUUGCACUUUUCUCUUUGCUCACCACCAAGUGUAAUCAAUAGCAAAGCACUGACAGUUCAUAGCAGUAGUGAAAUCUGAAAUAACUAAGAAUUAAUCAG	0.138
GAAGGUAUUCCUGACCAGAUGACGCUAAAGACCAUCUAUGAGAGAAUAUCAAAGAAUAUCCCAACAACUAAAGAUGUUGAGCCACUUCUUGAAAUUGAUGGAGAUAUAAGAAAUUUUGAA	0.158
GGGCAGUUUGCUUUCCAUGUUGGUCUUCCUGCAAAAUCUGGAGUUGCUGGGGGCAUUCUUUUAGUUGUCCCCAAUGUUAUGGGUAUGAUGUGCUGGUCUCCUCCUCUGGAUAAGAUGGGC	0.535
UGUAGUUCUGAAUACACAGGUUUUGUGUGUAUUUACUCUAUGUAUUAAAUUAUUAUUGCCCUUAGUUUAAAGUAAGGAUUACAAUUGGAUUUAAGUAGAUCACUGAAUGUUAUUGUUUAU	2.84
UCACUAUUCUAUAUUAAAACUUUGUCAGAAAAUGAUGUGCUAUUCAAGUAAGUUUGUUUUACUUUUUUCUUAAAAGGAUAUUUUAACAUGCCUUAUUUAUUAUUGUUAUCAAAACAAAUA	0.894
AGAGAUCAAAGUAAAGGUAUUCUAAAGAUUUCAGCUGUCCCUGAACUAACUGAUGUGAAUACUGGAAAACCAGUAUCUCUCUCUAGUUCUUAUUUUCACAGAGAGAAAUCGAAUAUUUUC	0.18
GAGUGGCCCCUGCUAGAUUCUUCCCAGAGAAAACUGUACAAAGAUGUAAUGCUGGAGAAUUAUAGCAAUCUAAGUUCACUGGGUUAUCAGGUUGGCAAACCCCGCCUCAUCUCACACCUA	0.189
CUAGAGAUUUACUACAUCCGUCCUUGGAAGAGGAAAAGAAAAAACAUAAAAAGAAACGCCUAGUACAAAGUCCAAAUUCUUACUUUAUGGAUGUAAAAUGUCCAGGUUGCUACAAGAUCA	0.516

Block 5 — technique: protein-binding microarray; molecule type: double-stranded DNA, one strand shown; medium: in vitro; concentration: not given; direction: higher = stronger binding
Target: Max dimerization protein 1, bHLH-zipper, MAX partner unstated (MXD1, Homo sapiens, UniProt Q05195, residues 56-136)
Notes: k-mer, scored over probes, only values ≥0.25
Construct (chain): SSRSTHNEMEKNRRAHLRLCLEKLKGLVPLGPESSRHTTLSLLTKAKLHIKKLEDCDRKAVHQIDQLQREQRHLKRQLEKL
Strand	E-score
CATGCCAC	0.36
ACGCGAGG	0.281
ACACGCCT	0.336
ACGTGACA	0.408
ACGCTAAC	0.259
TCGCCCCA	0.26
AACGTGGC	0.388
CACGCGGC	0.449
CAGGGGGA	0.272
CCTCCCAC	0.285
ACGCGGTC	0.27
GCATGAGA	0.279
CATGGATA	0.251

Block 6 — technique: protein binding microarray; molecule type: double-stranded DNA, one strand shown; medium: in vitro; concentration: not given; baseline: not given; direction: higher = stronger binding
Target: Histone acetyltransferase KAT6A, winged helix 2, GST fusion (KAT6A, Homo sapiens, UniProt Q92794, residues 85-181)
Notes: 8-mer, flanks averaged, mean of 2 arrays, mostly near background
Construct (chain): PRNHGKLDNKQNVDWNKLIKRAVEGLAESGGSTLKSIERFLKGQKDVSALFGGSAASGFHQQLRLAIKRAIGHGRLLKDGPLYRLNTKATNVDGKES
Strand	E-score
GCCAGTCA	-0.0377
AGGTGGTA	-0.114
AGTTTAGA	-0.143
GAAACTGA	-0.0242
ATTAAACG	-0.096
GCACATCC	0.0469
CCAGTTCC	0.0767
CAGTTAAA	-0.0148
ACTCGGTC	-0.0247
GAGGGGGA	0.0229
CCCGCTAC	0.0933
AAGAGGCG	-0.0159
TCACGCAA	0.0452
CTGGAGCC	0.0161
AATCGTAG	-0.0673
AAAGAGCT	0.0421
AAGAGAAG	0.124
AGATTCAT	0.0623
CCAATAAC	-0.0796
CTCCCTGA	-0.0695
CCTGTCGA	0.00056
AGCGCCAG	0.174
GCTTCTTA	0.0688

Repeated from above (block 3):
Strand	E-score
AAGGAGGC	-0.293
GACCCACA	0.0137
CTCATGGA	-0.0464
AACCATTC	0.176
GAAGAGTA	0.0895
GCCACTTA	0.0402
GGGTTTGA	-0.0474
CAATAGGA	0.145
AACCGACG	-0.137
CGTGCCCC	-0.281
GAGCCCGA	-0.213
GATCACAC	-0.12
CGTAATCA	0.234
CGCAATCC	-0.0248
CATCGAAC	-0.00536
